Measurements collected from several papers.
Numbered parts are unrelated; each lists some results of a single study. Positions count from the first letter of the parent shown.

Study 1 — technique: universal PBM; form: double-stranded DNA, one strand shown; matrix: in vitro; tested at: not given; direction: higher = stronger binding
Target: Sal-like protein 4, full length isoform B (SALL4, Homo sapiens, UniProt Q9UJQ4-2, residues 1-616)
Notes: 8-mer, flanks averaged, mean of replicates
Residues (chain): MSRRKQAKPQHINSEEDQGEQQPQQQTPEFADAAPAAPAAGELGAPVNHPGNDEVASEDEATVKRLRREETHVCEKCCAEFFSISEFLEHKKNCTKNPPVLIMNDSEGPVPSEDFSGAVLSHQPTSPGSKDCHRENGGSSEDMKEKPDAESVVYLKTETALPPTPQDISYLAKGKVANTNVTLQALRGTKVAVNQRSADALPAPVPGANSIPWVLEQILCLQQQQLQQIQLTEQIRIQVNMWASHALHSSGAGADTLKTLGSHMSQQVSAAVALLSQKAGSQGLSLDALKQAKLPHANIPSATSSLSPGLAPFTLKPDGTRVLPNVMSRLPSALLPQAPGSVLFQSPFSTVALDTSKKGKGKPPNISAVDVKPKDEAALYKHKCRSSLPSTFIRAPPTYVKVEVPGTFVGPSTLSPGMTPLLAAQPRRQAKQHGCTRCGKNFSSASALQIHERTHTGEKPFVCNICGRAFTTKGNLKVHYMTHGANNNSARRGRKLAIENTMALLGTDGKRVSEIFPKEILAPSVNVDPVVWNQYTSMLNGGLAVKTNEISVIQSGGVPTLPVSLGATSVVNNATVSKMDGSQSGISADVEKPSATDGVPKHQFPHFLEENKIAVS
| Sequence | E-score |
| --- | --- |
| CGGTCCAG | -0.326 |
| CTACTCCA | -0.0551 |
| CTGTATGA | 0.233 |
| ATGTAAGC | 0.17 |
| AATCGACA | 0.169 |
| TAGTTTGA | 0.15 |
| GATCTATA | 0.238 |
| ACAAAGAA | 0.23 |
| CGTCTGAG | -0.145 |
| CATTAGTA | 0.196 |
| ATCCAGAG | 0.0147 |
| CAGACTGA | -0.216 |
| ATCGCTCG | -0.0832 |
| GCTCATGA | -0.0615 |
| TCGCTTAA | 0.0544 |
| CTTGGTCC | -0.221 |
| AAAGGGCC | -0.237 |
| ACAAGCCG | -0.15 |
| CACTTTGG | -0.00833 |
| CGTCCCAA | -0.117 |
| ACTGGACG | -0.152 |
| CGTCAGTA | 0.0335 |
| CTGACAGA | -0.0086 |

Study 2 — technique: DHFR PCA, deep sequencing; matrix: yeast; together with: (+)-ABA 17 µM; baseline: wild-type fitted maximum; direction: higher = stronger binding
Target: ABI1, truncated, D143A, DHFR fusion (Arabidopsis thaliana)
Notes: methotrexate growth selection, single substitutions
Starting sequence: PYL1, truncated, DHFR fusion (Arabidopsis thaliana); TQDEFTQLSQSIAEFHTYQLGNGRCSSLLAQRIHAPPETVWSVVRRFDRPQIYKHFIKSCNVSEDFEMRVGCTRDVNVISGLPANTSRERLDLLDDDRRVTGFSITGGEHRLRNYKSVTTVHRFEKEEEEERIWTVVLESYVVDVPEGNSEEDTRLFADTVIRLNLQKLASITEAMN
| Substitution | relative binding score |
| --- | --- |
| T73I | 85.9% |
| A170K | 90.3% |
| L28Q | 40% |
| C72Y | 43.6% |
| E127N | 84.2% |
| T106C | 77.6% |
| Y115V | 6.98% |
| Q10S | 85.8% |
| N61A | 84.3% |
| T106G | -8.18% |
| K168I | 38.7% |
| R46M | 71.8% |
| R113P | 47.4% |
| V136G | 2.08% |
| H55S | 93.3% |
| T73F | 87.6% |
| Q2Y | 76% |
| R24Y | 45.9% |
| K126E | 88.9% |
| Y18H | 86.2% |
| R155Q | 67.4% |
| R32C | 70.7% |
| V40P | -12.2% |
| R46H | 43.9% |
| V121R | -0.62% |

Study 3 — target: CCNA1, cyclin fold, Cln2 fusion (human); technique: yeast growth competition, sequencing; matrix: yeast; notes: strong parent motif; baseline: not given; direction: higher = stronger binding
Starting sequence: RBL2 docking peptide (human); STTRRRLFVENDS
| Substitution | normalised enrichment score |
| --- | --- |
| N11D | 0.797 |
| R6E | 0.453 |
| D12W | 0.41 |
| R4N | 0.242 |
| S1H | 0.739 |
| F8G | 0.113 |
| D12S | 0.41 |
| S13C | 0.785 |
| R5S | 0.444 |
| D12Y | 0.721 |
| V9M | 0.856 |
| S13Q | 0.285 |
| S1R | 0.837 |
| R4F | 0.569 |
| L7K | 0.185 |
| D12R | 0.3 |
| S13E | 0.779 |

Study 4 — technique: RNA Bind-n-Seq; form: RNA; matrix: in vitro; tested at: 365 nM; baseline: no-protein control; direction: higher = stronger binding
Target: RNA binding protein fox-1 homolog 2, RRM domain, GST-SBP tag (RBFOX2, Homo sapiens, UniProt O43251-10, residues 100-194)
Notes: natural RNA segment, single round, ends assumed
Shared flanks, not repeated: GGGAGUUCUACAGUCCGACGAUC … UGGAAUUCUCGGGUGCCAA
Target sequence (chain): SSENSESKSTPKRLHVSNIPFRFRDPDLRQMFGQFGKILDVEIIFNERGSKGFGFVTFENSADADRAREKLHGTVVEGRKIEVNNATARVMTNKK
| Sequence | RBNS enrichment (R) |
| --- | --- |
| CUACCAUUUAUAAGGAGUUUGAAAAGAGGAAGAUGCUUGAAGGACACAACAAGAAAUUCUUUAAAGCUGUGGAAGAAAUCUAGACGUGAGGGCCAGUCCAGGCUGUCAGC | 0.592 |
| UUAUGCAACAUGCAGAAUGCUGUUUUUAGCCUUGUUUUACCAGAGUUGUUUUUUUUUUCAGUUAUUUCUUCAAGGGAAACUAAAUGAUUUAGUUGGAGCAAAGCUUUAAG | 0.405 |
| UGCUAACCUUUGCACAUACUCUGUUUUUACUUUGAUGGCUUCUCCAGGUUUUUGUCAGGUACCACAUGUAGAAUUACAUUUUUCUUAAAAGAUUGAUCAUCCAAAUGGCA | 1.64 |
| ACAUUGGAUUCCCCAGUGAGAUCAUCUAGAAACCAUCUAAAUAAACCACUCUAUAUUUUAUGAAUUACAUGUGGGUUUUUUAUAUAUAAAAACAUAUGCGCUGACAUUUU | 0.6 |
| GGCAACACUGUUAUUGAAAAUCAUGUAAGAUUAAAGAGAGGCAUUUUCGUUUCUAUACAACUUCAUUUCAUACACCUUCUGCCCUUACAGCACCUCAUGGGAUCAGAAAA | 0.517 |
| GAAAAGGAUCAUGAAACCUGAGAAAUGCUAAUGGAGAUUUGCUGGUACAUAGGAAUCUAGCAAAUUCAGGAACCAAGGGGAAAUGUUGUGAGAUAACAUUUACAUUGUCA | 0.91 |
| UGCUCACUCAUCUCAGCUCCAGCCGCACAGCCACAGCCUCAGGUCUGUUUAGCUUGGGAAGCCAAAAGUGGAUGCCUGUGUUCAUGGGCCUCCCCUGGGAGUUAGUGAUU | 0.486 |
| GUUUGACAGAACCACAUCACAUCGUGGAGAAGCUGGUGCAGGAGUUCCUAGAGCCCCAGGGUCAACUGUCCUCUCUAGCAUGCAGCCUGUGACAGCUUGCUUCAGGACAA | 3.62 |
| CUAAUGGUUAAGACACCAGUAACAAAAACACAUGAUUUGGAAAUACUUUGGCUUUUUCAUAUACCUAGUGGUGCCUUAUCAUAAUAGCACUGUUACAUGAAAUAAGCCCC | 0.444 |
| CAUUUUGAGAUGAACAGAACAAUGGGCUGAGUUAUAAAAAGCGUGUAUUGAAUUUAAGAAGACAGACUAGCACAAAACACAGAAUUCGUGUUAACCAAAGGAGGCAUUGA | 0.722 |
| UGGGGCUCUGGAUCCUUGGGUGUCCUCACUGUGGCCACUCUGCCUGCUGAGGACAGCCAGAAGCCCACACUGCCCUCUCACUUGGGUCCAGUUCUUGAUAGUUGGGGGCA | 0.404 |
| CCCCCCAAGCCCCAACAGGAAGAAGGGAAAGGUGGGGAAGCUGACGCUCACUCAGUGCCCACUGGGUGCCAGGCUCUGGGCUCAACCCUCUAAUAUCCACACAUUCCAUC | 0.226 |

A few entries again (study 2):
| Substitution | relative binding score |
| --- | --- |
| T106G | -8.18% |
| K168I | 38.7% |
| R46M | 71.8% |
| R113P | 47.4% |
| V136G | 2.08% |
| H55S | 93.3% |
| T73F | 87.6% |
| Q2Y | 76% |
| R24Y | 45.9% |
| K126E | 88.9% |
| Y18H | 86.2% |
